# Assay results from different studies.
# Numbers after ± are the reported error.
SMILES,assay,system,setting,scale,endpoint,result
COCC(=O)NCCSc1c(-c2ccc(Br)cc2)[nH]c2ccccc12,,rat,oral,,oral bioavailability,11%
CS(C)(=O)=Nc1ccc(-c2ccc(-c3nc4cc(O[C@@H]5CO[C@H]6[C@@H]5OC[C@H]6O)[nH]c4cc3F)cc2)cc1,,"female C57BL/6 mouse, plasma","oral, 10 mg/kg",,bioavailability,85%
CCCCCCCC(=O)NCCCC[C@H](NC(=O)[C@H](Cc1ccccc1)NC(=O)[C@@H](CCCNC(=N)N)NC(=O)[C@@H](N)Cc1ccc(O)cc1)C(N)=O,,"mouse, CD-1, male, brain","intravenous, 3 mg/kg",,terminal elimination rate constant,0.0064 min⁻¹
COc1cc2c3c(c4cc(OC)c(OC)cc4c2cc1OC)CN1CCCCC1C3 (centres unmarked),,"Sprague-Dawley rat, male","intravenous, dose not given",,AUC(0-inf),503 ng·h/mL
C=Cc1cc(O)cc2nc(-c3ccc(O)c([76Br])c3)oc12,,"female C57BL/6 mouse, spleen","3 h, high dose, added: estradiol 20 µg blocking",,tissue uptake,0.05 ± 0.02 %ID/g
CC(C)[C@H](NC(=O)CNC(=O)[C@H](CCC(N)=O)NC(=O)[C@H](C)N)C(=O)O,,human,"intravenous infusion, 90 mg/kg/h, 2 h, relatedness Possibly",reference: subjects,drug-related adverse events,0%
CC[C@H](C)[C@@H]1NC(=O)[C@H](CCCCN)NC(=O)[C@H](CCCCN)NC(=O)[C@H](Cc2ccc(O)cc2)NC(=O)[C@H](CC(C)C)NC(=O)[C@@H]2CCCN2C(=O)[C@H](C)NC(=O)CNC(=O)CNC(=O)[C@H](CO)NC(=O)CNC(=O)CNC(=O)[C@H](CC(N)=O)NC(=O)[C@H](CCC(=O)O)NC(=O)[C@H](CC(C)C)NC(=O)[C@H](CC(C)C)NC(=O)[C@H](CCCCN)NC(=O)[C@H](CCCCN)NC(=O)[C@H]([C@@H](C)CC)NC(=O)[C@H]([C@@H](C)CC)NC(=O)[C@H](CCCCN)NC(=O)[C@H](CCCCN)NC(=O)[C@H](Cc2ccc(O)cc2)NC(=O)[C@H](CC(C)C)NC(=O)[C@@H]2CCCN2C(=O)[C@H](C)NC(=O)CNC(=O)CNC(=O)[C@H](CO)NC(=O)CNC(=O)CNC(=O)[C@H](CC(N)=O)NC(=O)[C@H](CCC(=O)O)NC(=O)[C@H](CC(C)C)NC(=O)[C@H](CC(C)C)NC(=O)[C@H](CCCCN)NC(=O)[C@H](CCCCN)NC(=O)[C@H]([C@@H](C)CC)NC1=O,hemolysis,uninfected human erythrocytes,1 h,,HC10,79.9 ± 8.3 µM
NC(=O)CC[C@@H]1NC(=O)[C@H](Cc2ccccc2)NC(=O)[C@H](Cc2ccc(O)cc2)NC(=O)[C@@H](N)CSSC[C@@H](C(=O)N2CCC[C@H]2C(=O)N[C@@H](CCCN=C(N)N)C(=O)NCC(N)=O)NC(=O)[C@H](CC(N)=O)NC1=O,radioimmunoassay,"Sprague-Dawley rat, plasma","intra-arterial, 5 ng/kg, 5 min",reference: 1 min post-injection,plasma level reduction,14%
CN[C@](C)(C[18F])C(=O)O,,"SCID mouse A549 xenograft, spleen","120 min, post injection",,tissue uptake,4.3 ± 1 %ID/g
CNC(=O)c1cccc(-c2ccc(O[C@H]3O[C@H](CO)[C@@H](O)[C@H](O)[C@@H]3O)c(C)c2)c1,,rat,"oral, 10 mg/kg, 10% cyclodextrin",,oral bioavailability,1.4%
CC(C)(CCCC/C=C/CCCCCC(C)(C)C(=O)O)C(=O)O,,"beagle dog, plasma","oral, 5 mg/kg",,Cmax,39600 ng/mL
CCNc1cc2[o+]c3cc(NCC)c(C)cc3c(-c3ccccc3C(=O)OCCOCC[18F])c2cc1C,,rat,30 min,reference: heart over bone,tissue uptake ratio,4.6
O=P1(NCCCl)NCCCO1 (centres unmarked),,"rat, plasma","intravenous, 10 mg/kg, added: ketoconazole 20 mg/kg oral 50 min before",,MRT(0-inf),5.88 ± 1.39 h
CSCC[C@@H]1NC(=O)[C@@H]2CSSC[C@H](NC(=O)[C@H](CO)NC(=O)[C@H](C)N)C(=O)N[C@@H](CCCNC(=N)N)C(=O)N[C@@H]([C@@H](C)O)C(=O)N3CCC[C@H]3C(=O)N[C@@H](CCCCN)C(=O)N[C@@H](CC(=O)O)C(=O)N[C@H]3CSSC[C@H](NC(=O)[C@H](CCCCN)NC(=O)[C@H](CCCNC(=N)N)NC(=O)[C@H](CC(N)=O)NC1=O)C(=O)N[C@@H](CCCCN)C(=O)N[C@H]1CSSC[C@H](NC(=O)[C@@H]4CCCN4C(=O)[C@H](CC(=O)O)NC(=O)[C@H](C)NC3=O)C(=O)N[C@@H](C)C(=O)N[C@@H](CCCCN)C(=O)N[C@@H](CCC(=O)O)C(=O)N[C@@H]([C@@H](C)O)C(=O)NCC(=O)N[C@@H](CSSC[C@@H](C(N)=O)NC(=O)[C@H](CCCNC(=N)N)NC(=O)[C@H](CC(N)=O)NC1=O)C(=O)N1CCC[C@H]1C(=O)N[C@@H](Cc1ccc(O)cc1)C(=O)NCC(=O)N[C@@H](CCCCN)C(=O)N2,,"DA rat, pristane-induced arthritis, serum","subcutaneous, 0.1 mg/kg every other day, end of 21-day trial",,globulin,1.28 g/dL
CN(C)C(CNC(=O)Nc1cc(C(F)(F)F)ccc1N1CCOCC1)c1ccncc1 (centres unmarked),,"mouse, serum","intraperitoneal, 180 mg/kg single dose",,blood urea nitrogen,20 mg/dL
Cc1ccc(C(C)C)cc1.O=C(N=P(c1ccccc1)(c1ccccc1)c1ccccc1)c1ccccn1.[Cl-].[Cl-].[Ru+2],,C57BL/6 mice,"10 mg/kg/day, 7 days",,body weight loss,19%
[2H]C([2H])([2H])C([2H])([2H])C([2H])([2H])OC(C(=O)OC1CCNCC1)(c1ccccc1)c1ccccc1,measured: upper respiratory tract infection,healthy Japanese male,"oral, 12 mg once daily, 16 days",,adverse events,14.3%
CC(=O)NCC(=O)NCC(=O)N[C@@H](CCCCNP(=O)(O)O)C(=O)NCC(=O)NCC(N)=O,non-enzymatic hydrolysis,,"100 µM, pH 7.8, no enzyme",,first-order rate constant,3.59e-05 s⁻¹
COC1CC(OC2CCC3(C)C4CCC5(C)C(C6=CC(=O)OC6)CCC5(O)C4CCC3(O)C2)OC(C)C1OC1OC(CO)C(O)C(O)C1O (centres unmarked),in situ single-pass perfusion,"rat, proximal jejunum","dose not given, 90 min, pH 6.8",,effective permeability,19 ± 86.3 ×10⁻⁶ cm/s
C/C=C/C=C/C/C=C/CCCCCCCc1cccc(O)c1O,,"female Kunming mice tumour-bearing, kidneys","intravenous, 10 mg/kg, 4 h",,tissue concentration,7230 ± 1620 ng/g
C=Cc1c(C)c2cc3nc(c(CC(=O)O)c4[nH]c(cc5nc(cc1[nH]2)C(C)=C5CC)c(C)c4C(=O)O)[C@@H](CCC(=O)NCCCC[C@H](NC(C)=O)C(=O)N[C@@H](Cc1ccccc1)C(=O)N[C@@H](Cc1ccccc1)C(=O)N[C@H](C(=O)N[C@@H](CC(C)C)C(=O)N[C@@H](CCCCN)C(=O)N[C@@H](CO)C(=O)NCC(=O)N[C@@H](CCC(N)=O)C(=O)NCC(=O)N[C@@H](Cc1ccc(O)cc1)C(=O)N[C@@H](CCCNC(=N)N)C(=O)N[C@@H](Cc1c[nH]c2ccccc12)C(=O)N[C@@H](CC(=O)O)C(=O)N[C@@H](CO)C(=O)N[C@@H](Cc1ccc(O)cc1)C(=O)N[C@@H](CCCNC(=N)N)C(=O)N[C@@H](Cc1c[nH]c2ccccc12)C(=O)N[C@@H](Cc1c[nH]cn1)C(=O)N1CCC[C@H]1C(=O)N[C@@H](CO)C(=O)N[C@@H](CS)C(=O)N[C@@H](C)C(=O)N[C@@H](CS)C(=O)NCC(=O)NCC(=O)N[C@@H](CO)C(=O)N[C@@H](CCCCN)C(N)=O)C(C)C)[C@@H]3C,CCK-8,"SK-BR-3, human","1 to 200 µM, 24 h",,cytotoxicity,not toxic
CC(C)[C@@H]1NC(=O)[C@H](Cc2ccccc2)NC(=O)[C@H](Cc2ccc(O)cc2)NC(=O)CCSSC[C@@H](C(=O)N2CCC[C@H]2C(=O)N[C@H](CCCNC(=N)N)C(=O)NCC(N)=O)NC(=O)[C@H](CCC(N)=O)NC1=O,,"Wistar rat, blood","intravenous, 1 µg/kg single dose, 72 h",,GGT,2.8 ± 0.8 IU/L
CCCCCCCCCCCCC(=O)O.O=C1CCCC2C3CCCN4CCCC(CN12)C34 (centres unmarked),electrical conductivity,water,"298.15 K, critical micelle concentration",,standard enthalpy of micellization,-1.12 kcal/mol
CCCCCCCC(=O)OC[C@H](NC(=O)[C@H](CO)NC(=O)CN)C(=O)N[C@@H](Cc1ccccc1)C(=O)N[C@@H](CC(C)C)C(=O)N[C@@H](CO)C(=O)N1CCC[C@H]1C(=O)N[C@@H](CCC(=O)O)C(=O)N[C@@H](Cc1cnc[nH]1)C(=O)N[C@@H](CCC(N)=O)C(=O)N[C@@H](CCCNC(=N)N)C(=O)N[C@H](C(=O)N[C@@H](CCC(N)=O)C(=O)N[C@@H](CCC(N)=O)C(=O)N[C@@H](CCCNC(=N)N)C(=O)N[C@@H](CCCCN)C(=O)N[C@@H](CCC(=O)O)C(=O)N[C@@H](CO)C(=O)N[C@@H](CCCCN)C(=O)N[C@@H](CCCCN)C(=O)N1CCC[C@H]1C(=O)N1CCC[C@H]1C(=O)N[C@@H](C)C(=O)N[C@@H](CCCCN)C(=O)N[C@@H](CC(C)C)C(=O)N[C@@H](CCC(N)=O)C(=O)N1CCC[C@H]1C(=O)N[C@@H](CCCNC(=N)N)C(=O)O)C(C)C,measured: DAG,"human, plasma","intravenous infusion, 1 µg/kg/h, 210 min",,mean residence time,107 ± 11 min
COc1cc2ncnc(Oc3cccc(N[11C](=O)Nc4cc(C(C)(C)C(F)(F)F)on4)c3)c2cc1OC,radio-HPLC,"female Balb/c nude mice, urine","intravenous, 30 min",reference: radioactivity,metabolites in urine,98%
N=C(N)NCc1ccc(C(=O)NCCCC[C@H](NC(=O)N[C@@H](CCC(=O)O)C(=O)O)C(=O)O)cc1[131I],,"SCID mouse, PC-3 xenografts, blood",4 h,,tissue uptake,0.14 ± 0.06 %ID/g
CC[C@H](C)C(=O)N1CCC(NC(=O)Nc2ccc(OC(F)(F)F)c(F)c2)CC1,,"human, plasma","oral, 2 mg, single dose, healthy volunteers",,Tmax,1.25 h
C#Cc1c(F)ccc2cc(O)cc(-c3ncc4c(N5CC6CCC(C5)N6C(=O)/C(C)=C(/C)C(=O)OCCCC)nc(OC[C@@]56CCCN5C[C@H](F)C6)nc4c3F)c12,chemical stability,simulated intestinal fluid,"1 µM, 30 min",,compound remaining,93.8%
COC(=O)C[C@](O)(CCCC(C)(C)OC(C)=O)C(=O)O[C@@H]1C(OC)=C[C@]23CCCN2CCc2cc4c(cc2[C@H]13)OCO4,,"CD1 mouse, large intestine","oral, 1 mg/kg, 0.5 h",,tissue concentration,79.4 ng/mL
CCCC[C@H](NC(=O)CN1CCC(NC(=O)CN2CCC(NC(=O)CN3CCN(CC(=O)O)CCN(CC(=O)O)CCN(CC(=O)O)CC3)CC2)CC1)C(=O)N[C@H]1CC(=O)NCCCC[C@@H](C(N)=O)NC(=O)[C@H](Cc2c[nH]c3ccccc23)NC(=O)[C@H](CCCNC(=N)N)NC(=O)[C@@H](Cc2ccccc2)NC(=O)[C@H](Cc2c[nH]cn2)NC1=O [gallium-68 labelled],radio-HPLC,"mouse, plasma","intravenous, 8 to 12 MBq, 5 min post injection",,intact compound,> 96%
Cc1ccc(/C=C/C(=O)O)cc1-c1cc2c(cc1C)C(C)(C)CCC2(C)C,,"rat, Sprague-Dawley, male, plasma","oral, 100 mg/kg, sesame oil vehicle",,AUC(0-inf),24700 ng·h/mL
CCOC(=O)[C@@H]1Cc2c(cc([N+](=O)[O-])cc2[N+](=O)[O-])[C@H](O)[C@]12C(=O)Nc1ccc(Br)cc12,metabolic stability,"human, liver microsomes",,,half-life,0.775 h

# Repeated from above:
SMILES,assay,system,setting,scale,endpoint,result
CSCC[C@@H]1NC(=O)[C@@H]2CSSC[C@H](NC(=O)[C@H](CO)NC(=O)[C@H](C)N)C(=O)N[C@@H](CCCNC(=N)N)C(=O)N[C@@H]([C@@H](C)O)C(=O)N3CCC[C@H]3C(=O)N[C@@H](CCCCN)C(=O)N[C@@H](CC(=O)O)C(=O)N[C@H]3CSSC[C@H](NC(=O)[C@H](CCCCN)NC(=O)[C@H](CCCNC(=N)N)NC(=O)[C@H](CC(N)=O)NC1=O)C(=O)N[C@@H](CCCCN)C(=O)N[C@H]1CSSC[C@H](NC(=O)[C@@H]4CCCN4C(=O)[C@H](CC(=O)O)NC(=O)[C@H](C)NC3=O)C(=O)N[C@@H](C)C(=O)N[C@@H](CCCCN)C(=O)N[C@@H](CCC(=O)O)C(=O)N[C@@H]([C@@H](C)O)C(=O)NCC(=O)N[C@@H](CSSC[C@@H](C(N)=O)NC(=O)[C@H](CCCNC(=N)N)NC(=O)[C@H](CC(N)=O)NC1=O)C(=O)N1CCC[C@H]1C(=O)N[C@@H](Cc1ccc(O)cc1)C(=O)NCC(=O)N[C@@H](CCCCN)C(=O)N2,,"DA rat, pristane-induced arthritis, serum","subcutaneous, 0.1 mg/kg every other day, end of 21-day trial",,globulin,1.28 g/dL
CCCC[C@H](NC(=O)CN1CCC(NC(=O)CN2CCC(NC(=O)CN3CCN(CC(=O)O)CCN(CC(=O)O)CCN(CC(=O)O)CC3)CC2)CC1)C(=O)N[C@H]1CC(=O)NCCCC[C@@H](C(N)=O)NC(=O)[C@H](Cc2c[nH]c3ccccc23)NC(=O)[C@H](CCCNC(=N)N)NC(=O)[C@@H](Cc2ccccc2)NC(=O)[C@H](Cc2c[nH]cn2)NC1=O [gallium-68 labelled],radio-HPLC,"mouse, plasma","intravenous, 8 to 12 MBq, 5 min post injection",,intact compound,> 96%
CN[C@](C)(C[18F])C(=O)O,,"SCID mouse A549 xenograft, spleen","120 min, post injection",,tissue uptake,4.3 ± 1 %ID/g
C/C=C/C=C/C/C=C/CCCCCCCc1cccc(O)c1O,,"female Kunming mice tumour-bearing, kidneys","intravenous, 10 mg/kg, 4 h",,tissue concentration,7230 ± 1620 ng/g
